Assay results of several laboratories.
Numbered parts are unrelated; each lists some results of a single study. Changes are numbered by the printed parent chain.

Sample 1 — technique: protein binding microarray; molecule type: double-stranded DNA, one strand shown; sample: in vitro; tested at: not given; relative to: not given; reading: higher = stronger binding; measurement: E-score
Target: Histone acetyltransferase KAT6A, winged helix 1, GST fusion (KAT6A, Homo sapiens, UniProt Q92794, residues 1-85)
Setting: 8-mer, flanks averaged, mean of 2 arrays, mostly near background
Construct (chain): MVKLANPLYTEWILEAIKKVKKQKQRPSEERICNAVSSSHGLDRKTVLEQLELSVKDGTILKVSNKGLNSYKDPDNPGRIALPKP
AGAGGTCA: -0.0458
CTGCAAAA: -0.0796
ACACACAA: -0.173
CAGATTGG: -0.297
AGTGAACG: -0.115
CCGTGCTA: 0.193
AAGGGAGT: -0.152
AGCCTGCG: 0.0813

Sample 2 — technique: RNA Bind-n-Seq; molecule type: RNA; sample: in vitro; tested at: 200 nM; setting: whole 134-nt RNA, ends assumed; added: 150 mM LiCl; relative to: input library; reading: higher = stronger binding; measurement: log2 enrichment; library: 7-deaza-guanosine replaces G
Target: Fragile X messenger ribonucleoprotein 1, C-terminal low-complexity region (Fmr1, Mus musculus, UniProt P35922)
Shared flanks, not repeated: GGGAGUUCUACAGUCCGACGAUC … UGGAAUUCUCGGGUGUCAAGG
CUCAAGUCCUGUGCUACACAUCGUAUGUACCGAAUCGGGAAGGGAAGGAAGGGGAAAGUAUUAUGUUACGCCGUUCGGAUCUGCACUUCC: -0.496
CUGUGCUACACAUCGUAUGUACCGAAUCGGAAAAAAAGGGAAAAAAAGGGGAAAAAAAGGGAAAGUAUUAUGUUACGCCGUUCGGAUCUG: -0.311
CACAGACAACACGCACCCACACAGACACAGAGGGAAGGGGUUGGGAUGGGGACAGGGUGCACAGCAGGGCGGGGUAGAAACCCAGCCCCU: 1.05
UGGGAGGUGGGUUUUGUUUAUUUUUUUAGCUCAUUUCCAGGGGUGGGAAUUUUUUUUUAAUAUGUGUCAUGAAUAAAGUUGUUUUUGAAA: -1.38
UCAAGUCCUGUGCUACACAUCGUAUGUACCGAAUCGGGGCCGGGCCGGGCCGGGGAAAGUAUUAUGUUACGCCGUUCGGAUCUGCACUUC: 0.848
GUAGCUGCUCCAGUGGGCCCAGUGGGCCCCACUCCUACAGUUUUGCCCAUGGGAGCCCCUGUUCCCCGGCCUCGUGGUCCCCCACCGCCC: 1.12
UCCUGUGCUACACAUCGUAUGUACCGAAUCGGGGCCCCCGGGGCCCCCGGGGCCCCCGGGAAAGUAUUAUGUUACGCCGUUCGGAUCUGC: 0.455

Sample 3 — technique: DHFR PCA, deep sequencing; sample: yeast; added: (+)-ABA 17 µM; relative to: wild-type fitted maximum; reading: higher = stronger binding; measurement: relative binding score
Target: ABI1, truncated, D143A, DHFR fusion (Arabidopsis thaliana)
Setting: methotrexate growth selection, single substitutions
Starting sequence: PYL1, truncated, DHFR fusion (Arabidopsis thaliana); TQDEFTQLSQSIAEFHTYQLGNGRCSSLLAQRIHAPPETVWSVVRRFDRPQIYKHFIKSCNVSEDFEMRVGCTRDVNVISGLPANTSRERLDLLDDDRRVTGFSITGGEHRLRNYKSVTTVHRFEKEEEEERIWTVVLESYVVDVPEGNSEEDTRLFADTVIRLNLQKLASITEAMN
P36E: 74.7%
G71V: -9.99%
D97C: 77.7%
R132T: 94.7%
E130Y: 69.7%

Further values, each from its own experiment
PhoQ, residues 284 288 289 292 302 303 AAQSYM  fold induction (PhoP, residues 12 14 15 18 19 LYFRQ (Escherichia coli, UniProt P23836); Sort-seq, refers to: YFP reporter; E. coli; PhoQ-PhoP variant library, added: 10 µM Mg2+; relative to: high Mg2+ state, higher = stronger signaling): 18.4
